Measured values collected from several papers.
Each numbered part is a random draw from the data of one study; scales do not carry over between parts.

Block 1
Target: Histone acetyltransferase KAT6A, winged helix 2, GST fusion (KAT6A, Homo sapiens, UniProt Q92794, residues 85-181)
Method: protein binding microarray
Molecule type: double-stranded DNA, one strand shown
Medium: in vitro
Tested at: not given
Notes: 8-mer, flanks averaged, mean of 2 arrays, mostly near background
Reference: not given
Direction: higher = stronger binding
Construct (chain): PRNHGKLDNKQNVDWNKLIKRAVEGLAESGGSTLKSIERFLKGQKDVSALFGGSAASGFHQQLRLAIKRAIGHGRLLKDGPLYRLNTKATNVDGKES
Oligonucleotide | E-score
AACATTGT | -0.23
AAGTCTAC | -0.265
CCTGAACG | 0.0135
CGAGGAAG | 0.0639

Block 2
Target: Interferon regulatory factor 5, full length, phosphomimetic (IRF5, Homo sapiens, UniProt Q13568-2, residues 1-514, K96S/S451D/S453D/S456D/S462D)
Method: protein-binding microarray
Molecule type: double-stranded DNA, one strand shown
Medium: in vitro
Tested at: 250 nM
Notes: 60-bp whole probe
Added: salmon DNA 0.4 mg/ml
Reference: random background probes
Direction: higher = stronger binding
Oligonucleotide | log fluorescence
GCCTAGCACTGAGATATCAGACTGGATTAGTGCTAGGTCTTGATTCGCTTGACGCTGCTG | -0.144 z-score
GCCTAGCACGTACATCTCTCTTAAATAGGGTGCTAGGTCTTGATTCGCTTGACGCTGCTG | 0.0601 z-score
GCCTAGCACGACGGACTGGACACTGGGGATGTGCTAGTCTTGATTCGCTTGACGCTGCTG | -0.332 z-score
GCCTAGCACTCCCATTCTGAATTCGAATGGTGCTAGGTCTTGATTCGCTTGACGCTGCTG | 0.204 z-score

Mixed results
T1: Sox-I, HMG box (Salpingoeca helianthica); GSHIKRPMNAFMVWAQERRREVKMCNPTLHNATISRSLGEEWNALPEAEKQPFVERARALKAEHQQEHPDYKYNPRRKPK
Substance | target | assay | system | conditions | scale | endpoint | value
PhoQ, residues 284 288 289 292 302 303 GNNTDL | PhoP, residues 12 14 15 18 19 LHSVQ (Escherichia coli, UniProt P23836) | Sort-seq, refers to: YFP reporter | E. coli | PhoQ-PhoP variant library, added: 10 µM Mg2+ | reference: high Mg2+ state, higher = stronger signaling | fold induction | 6.13
GAGTCGTCTCGTCAGCACCATTCGCCCGTAGAGCACTCAGGTC | T1, Sox-I, HMG box (Salpingoeca helianthica) | Spec-seq | double-stranded DNA, one strand shown, in vitro | not given, whole probe, mean of replicates | reference: not given, lower = stronger binding | relative binding energy | 1.1 ln ratio

For quick reference, copied from above (block 1):
Oligonucleotide | E-score
AAGTCTAC | -0.265
